Assay results collected from several papers.
Parts stem from different laboratories: compare values within a part only.

Set 1
Target: RNA binding protein fox-1 homolog 2, RRM domain, GST-SBP tag (RBFOX2, Homo sapiens, UniProt O43251-10, residues 100-194)
Technique: RNA Bind-n-Seq
Form: RNA
Medium: in vitro
Concentration: 365 nM
Setting: natural RNA segment, single round, ends assumed
Reference: no-protein control
Direction: higher = stronger binding
Endpoint: RBNS enrichment (R)
Shared flanks, not repeated: GGGAGUUCUACAGUCCGACGAUC … UGGAAUUCUCGGGUGCCAA
Target sequence (chain): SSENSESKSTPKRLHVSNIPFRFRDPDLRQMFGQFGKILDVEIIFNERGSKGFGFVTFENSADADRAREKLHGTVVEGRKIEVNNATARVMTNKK
AGAACCCCGUGGGGUGGGGGAGAGGAUGUUUCUGUGGGCCCCUUCACCCCUCCUCUGUCUGCACCUCUAAACCCCAGAGCCCUGGAGGGGAGAGACUGGACUCUAGCCAG: 0.863
GCACCCGUGCUCACUGUUGUUGGACGGGCUGGUCCACAGCCUCAGACCCACGCUCUGCCGAGAUACUGGACGGGAGGAAGGAUUUUUCCUAGACUGCGGAUUGGCGUGAC: 0.29
GGGUUGGGAGGGUCUUUUAUUUUUUUCCUCUGAAAUAAAGCAGUGCUGUUUUCAAAUGAAGCCGUGUGGAUAUUUCAGCGUGCUGCUCCCUGUUGUCUGGAAACAGUUGA: 0.668
AGAGUGCAGUGGAGUUGCGCUGGCCAUCAGUGUUUGGGGUCUGAGUUUGAUAGACUAGUGCAGCGAUCAGCCAUAUGAUUGAGAGCUACUUUGGGGAUAUAUGGUACGUU: 1.49
AAAAGGCCUCUCUUCUCAUCUGGUGCCAAAGGUUCCGUUGCAGCUUUUUACAACCAUCCGGUGUGGUUUGGAGGAUUUGUUUUUUUUUUUUCCCAACAGAAAAGAACAGC: 0.363
CCUGUGUUAUUGAAUGGACAGAGGCCUUGAAGGCCACUCUGCUCUCCCUCUUCUGCCUUCUUCUCCUCUCCCCUCCGAGAGGGGCAGCCAGGAACUGCAACGGACUCACA: 0.347
UGUGCCUUCUCUGGAUCCCUCCCUAGCCUGUGCCCCGAGCCGUCCAUAGAGAGUUUGUAGGUAUUUCCAGGGAUGGAGAAGAUCUAAGCAUUUGACUUCCCCAUCAGUAC: 3.46
UUCCCUCUGCCCUUUCUCUGGCUUCCUCUGCUCCUCCUCAUCCCUGCAGGCAAAGGAAACCCUCUGCUGCUUCCUUCCCCAGGAGCCAGGUGGGCACUGAAUGUGGUUUU: 0.505
UUGCUUUGAAGUUUUGCUCAAUGUUCCUCCCUUCCGACCACUUCCACUUAAAUAAAGUCUUUAAGUAGCUGAAGGAUUAACAGUCUGGUGGGAGGCAAGCCAUUGAACUG: 0.311
GUUCUCCAGAGUUCACCUUUCCCUUUUCCUUGAGUUGUGCUGAAUGCCCCACCCCAGCUCUCUUUCCCUUCUGGGUGUCUUUGCUGGGAGGGGGCUGUGUUGUGAGCCCU: 0.122
AAAAGUGAGUUUGGCCAGGAGGAAUGAGACGUCUCCUGAAAUAGGAACACCGGAACAUCAUGCUCACCUGCCAUCACUAUGCAUCCAGUUCCCACAGCUUGUGUCGUGAA: 1.19
CUUGUCCUCAGAAGGAACCUGCUCCUCUUGAGUGGCACCUGGGAUUUUCUCCUCCCAGUAAAUCUCAGUGAUGAUGUCAUGGUGAUUGAGUAGGAUGAGGCCUGUAUUAC: 0.411

Set 2
Target: Histone acetyltransferase KAT6A, winged helix 2, GST fusion (KAT6A, Homo sapiens, UniProt Q92794, residues 85-181)
Technique: protein binding microarray
Form: double-stranded DNA, one strand shown
Medium: in vitro
Concentration: not given
Setting: 8-mer, flanks averaged, mean of 2 arrays, mostly near background
Reference: not given
Direction: higher = stronger binding
Endpoint: E-score
Construct (chain): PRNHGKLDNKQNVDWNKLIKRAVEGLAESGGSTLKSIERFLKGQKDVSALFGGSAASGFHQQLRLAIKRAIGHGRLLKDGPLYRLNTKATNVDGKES
CGCATGAC: -0.0221
CCGATTTA: 0.075
ATTATGAG: -0.034
AACACGAG: -0.0337
GAGCTCAA: 0.00248
GCTGTTAA: 0.14
AGCCCCTG: 0.119
AATACAAG: 0.0282
AGTAATGC: -0.0657
GAGAATGC: -0.136
AAGTGTTA: -0.127
CATGCTCG: 0.0925
CATGTCAA: -0.1
ATGTTTCG: 0.0919
CATTCCCC: 0.061
CCCTAACC: -0.133
CTCAGGCC: -0.0394
CCACGCAC: 0.19

Set 3
Target: Hepatocyte nuclear factor 3-alpha (Foxa1, Mus musculus, UniProt P35582, residues 1-468, full length assumed)
Chain of UniProt P35582 (whole entry, looked up): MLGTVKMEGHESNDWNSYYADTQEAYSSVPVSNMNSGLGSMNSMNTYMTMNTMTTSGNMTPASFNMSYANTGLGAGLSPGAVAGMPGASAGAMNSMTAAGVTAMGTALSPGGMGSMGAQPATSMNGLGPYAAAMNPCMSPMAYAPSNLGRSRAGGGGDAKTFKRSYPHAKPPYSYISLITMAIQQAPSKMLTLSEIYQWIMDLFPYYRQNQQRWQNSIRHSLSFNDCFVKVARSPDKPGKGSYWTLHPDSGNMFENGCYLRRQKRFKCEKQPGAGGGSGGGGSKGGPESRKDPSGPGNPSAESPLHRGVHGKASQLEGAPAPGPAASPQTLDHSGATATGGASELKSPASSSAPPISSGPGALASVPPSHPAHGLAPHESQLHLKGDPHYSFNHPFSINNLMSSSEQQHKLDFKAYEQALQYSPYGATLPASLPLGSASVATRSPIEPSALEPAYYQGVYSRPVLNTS
Technique: EMSA with sequencing
Form: double-stranded DNA, one strand shown
Medium: in vitro
Concentration: 10 and 20 nM
Setting: whole designed probe, mean of two concentrations, ends assumed
Reference: negative control set to 0
Direction: higher = stronger binding
Endpoint: normalised bound fraction
Shared flanks, not repeated: GTGAGCGGTGCCCATTGATGGGGAAC … TTTCACTGGGATCGTGGGGAC
GTGAATGCTGGAGTTGGGTTATGAAATCAGGCAGTTAAACTACAGTCTGTGTATTTAACCATAGGGCTGTGATTCAAGCCACTTGAAATAAGGATGTTTACAAAGAAATATTGATTCATAGCCATAATAGCAATTCAAATATTGACATAACATGCGGGGCATCTGTTCAAATTTAGATTACCACATCACACAG: 0.429 ratio
ATCTTCCCCCTCTTCCTTGCCCCACCAGCTCACCTTCCCGGGTTATTTGCACAAAGGAAAATAAATAAAGCCGGCATTCGTTAACGCAGTTCACGCGCATACTGCTGTTTGCTCTGCATGAATCATGGTCCTTACGCGACGCCAGGCTCCGGGAGAGCAAAGCACCGTGTCAGGCGCATGATCCGGGGTGGCC: 0.379 ratio
ATCTTCCCCCTCTTCCTTGCCCCACCAGCTCACCTTCCCGGGTTATTTGCACAAAGGAAAATAAATAAAGCCGGCATTCGTTAACCCTCTTCTGGCGCAAACTGCTGTTTGCTCTGCATGAATCATGGTCCTTACGCGAGGCGTGGCTCCGGGAGAGCAAAGCACCGTGTCAGGCGCATGATCCGGGCTCGCC: 0.382 ratio
ACTCAAATTCACTTGGGACTGATGGTTTCATTTCTCTTCTCCCACACTAGGTGGCCAGACCAGCAAGACTTAAGCTTTGTTTAACTTGTCAATGTTTACAGAAGTGCAGGTTGCCAAAATTCTCTCTGCACCCTGACTCCCACTCCCTTTTTTAATTTTTTATTTTATTTTTTGAAATGGAGTCTTGCTCTGT: 0.377 ratio
TTTCCTGGCTGGCAGTTCCTGGGAGGGAGGGGCTCCAGCAGCCGGGAGGCAGGGTGCCGGCCTGCAGTGGCCTATCTTGGTCCCTGCCCAGAGTAAATAAAGGCCGAGCATCTCAGCACGGCTGCCACACCCCCGACTCCACTTCCTCCCTTTGGGGATTCCTGTTGGCTTCTGTGTCCTAGCCTGGCACCCC: 0.367 ratio
TGTATCCATCTGGGCAGTATCTTCTCTGGGCCTGGCCTGTCATAGGTGCTTCAGGTTTCCCCATTTGAACCAGATACCAGTCGGGTTACCGGATGTTTGCTTAAAATGAGTCATAGGCTTCCTGCTATTCCTGTGCTGCTTCCAGCTAGGACTGATCGAATCAGTCTGGATTTTCCTTGGGGTGATCCGCAGG: 0.143 ratio
ATCTTCCCCCTCTTCCTTGCCCCACCAGCTCACCTACGGGGGTTATTTGCACAAAGGAAAATAAATAAAGCCGGCATTCGTTAACCCTCTTCTGGCGCAAACTGCTGTTTGCTCTGGATCTAACATGGTCCTTTGGCGAGGCGTGGCTCCGGGAGAGCAAAGCACCGTGTCAGGGCCATGATCCGGGCTCGCC: 0.381 ratio
ATCTTCCCCCTCTTCCTTGCCCCACCAGCTCACCTTCCCGGGTATCTGCAAATAAGCAAAGTAAACAAAGCCGGCATTCGTTAACCCTCTTCTGGCGCAAACTGCTGTTTACTTTGGATGAATCATGGTCCTTTGGCGACGCCAGGCTCCGGGAGAGCAAAGCACCGTGTCAGGGCCATGATCCGGGGTGGCC: 0.519 ratio

Set 4
Target: Sal-like protein 4, full length isoform B (SALL4, Homo sapiens, UniProt Q9UJQ4-2, residues 1-616)
Technique: universal PBM
Form: double-stranded DNA, one strand shown
Medium: in vitro
Concentration: not given
Setting: 8-mer, flanks averaged, mean of replicates
Direction: higher = stronger binding
Endpoint: E-score
Residues (chain): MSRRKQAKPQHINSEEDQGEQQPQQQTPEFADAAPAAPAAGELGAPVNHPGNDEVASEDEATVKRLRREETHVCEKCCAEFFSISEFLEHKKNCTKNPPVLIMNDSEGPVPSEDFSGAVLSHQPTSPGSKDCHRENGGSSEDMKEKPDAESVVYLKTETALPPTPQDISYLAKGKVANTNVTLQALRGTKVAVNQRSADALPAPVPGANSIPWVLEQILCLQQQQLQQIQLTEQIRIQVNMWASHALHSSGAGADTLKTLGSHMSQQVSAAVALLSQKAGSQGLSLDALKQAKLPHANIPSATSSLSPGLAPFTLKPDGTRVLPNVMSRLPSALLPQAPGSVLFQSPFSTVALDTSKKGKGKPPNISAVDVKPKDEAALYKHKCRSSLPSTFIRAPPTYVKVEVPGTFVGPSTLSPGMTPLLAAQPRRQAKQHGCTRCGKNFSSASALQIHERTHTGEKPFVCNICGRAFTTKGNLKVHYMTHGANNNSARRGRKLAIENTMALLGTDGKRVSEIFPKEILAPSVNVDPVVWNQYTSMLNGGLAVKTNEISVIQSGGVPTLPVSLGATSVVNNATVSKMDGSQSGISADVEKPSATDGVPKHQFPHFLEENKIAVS
GTGATCAC: -0.0936
AACTCAAG: 0.043
GCGGGAGC: -0.274
CCTCCCCA: -0.254
ACAGATGG: 0.0176
AGTGAGCC: -0.157
CAAGCGTA: 0.0801
CTTCGCCA: -0.119
GAAGTCTA: 0.0552
CGATGGAG: -0.183
GGCGCACA: -0.2
TGGGTGAA: 0.191
CAAAATAC: 0.272
GATCAGGC: -0.0876
ACGTTACA: 0.161
GCGGCAGC: -0.358
GAAAGCAA: 0.081
AATTTCTG: 0.27
ATGAGTAG: 0.093

For quick reference, copied from above (set 4):
CCTCCCCA: -0.254
AGTGAGCC: -0.157
CTTCGCCA: -0.119
AACTCAAG: 0.043
TGGGTGAA: 0.191
GGCGCACA: -0.2
